Values quoted from earlier work as cited in several papers.
Each line is one published result; not all experiments were run side by side. In brackets after ≈: the same amount, converted by molar mass.
UniProt O00750, sequence (whole entry, looked up): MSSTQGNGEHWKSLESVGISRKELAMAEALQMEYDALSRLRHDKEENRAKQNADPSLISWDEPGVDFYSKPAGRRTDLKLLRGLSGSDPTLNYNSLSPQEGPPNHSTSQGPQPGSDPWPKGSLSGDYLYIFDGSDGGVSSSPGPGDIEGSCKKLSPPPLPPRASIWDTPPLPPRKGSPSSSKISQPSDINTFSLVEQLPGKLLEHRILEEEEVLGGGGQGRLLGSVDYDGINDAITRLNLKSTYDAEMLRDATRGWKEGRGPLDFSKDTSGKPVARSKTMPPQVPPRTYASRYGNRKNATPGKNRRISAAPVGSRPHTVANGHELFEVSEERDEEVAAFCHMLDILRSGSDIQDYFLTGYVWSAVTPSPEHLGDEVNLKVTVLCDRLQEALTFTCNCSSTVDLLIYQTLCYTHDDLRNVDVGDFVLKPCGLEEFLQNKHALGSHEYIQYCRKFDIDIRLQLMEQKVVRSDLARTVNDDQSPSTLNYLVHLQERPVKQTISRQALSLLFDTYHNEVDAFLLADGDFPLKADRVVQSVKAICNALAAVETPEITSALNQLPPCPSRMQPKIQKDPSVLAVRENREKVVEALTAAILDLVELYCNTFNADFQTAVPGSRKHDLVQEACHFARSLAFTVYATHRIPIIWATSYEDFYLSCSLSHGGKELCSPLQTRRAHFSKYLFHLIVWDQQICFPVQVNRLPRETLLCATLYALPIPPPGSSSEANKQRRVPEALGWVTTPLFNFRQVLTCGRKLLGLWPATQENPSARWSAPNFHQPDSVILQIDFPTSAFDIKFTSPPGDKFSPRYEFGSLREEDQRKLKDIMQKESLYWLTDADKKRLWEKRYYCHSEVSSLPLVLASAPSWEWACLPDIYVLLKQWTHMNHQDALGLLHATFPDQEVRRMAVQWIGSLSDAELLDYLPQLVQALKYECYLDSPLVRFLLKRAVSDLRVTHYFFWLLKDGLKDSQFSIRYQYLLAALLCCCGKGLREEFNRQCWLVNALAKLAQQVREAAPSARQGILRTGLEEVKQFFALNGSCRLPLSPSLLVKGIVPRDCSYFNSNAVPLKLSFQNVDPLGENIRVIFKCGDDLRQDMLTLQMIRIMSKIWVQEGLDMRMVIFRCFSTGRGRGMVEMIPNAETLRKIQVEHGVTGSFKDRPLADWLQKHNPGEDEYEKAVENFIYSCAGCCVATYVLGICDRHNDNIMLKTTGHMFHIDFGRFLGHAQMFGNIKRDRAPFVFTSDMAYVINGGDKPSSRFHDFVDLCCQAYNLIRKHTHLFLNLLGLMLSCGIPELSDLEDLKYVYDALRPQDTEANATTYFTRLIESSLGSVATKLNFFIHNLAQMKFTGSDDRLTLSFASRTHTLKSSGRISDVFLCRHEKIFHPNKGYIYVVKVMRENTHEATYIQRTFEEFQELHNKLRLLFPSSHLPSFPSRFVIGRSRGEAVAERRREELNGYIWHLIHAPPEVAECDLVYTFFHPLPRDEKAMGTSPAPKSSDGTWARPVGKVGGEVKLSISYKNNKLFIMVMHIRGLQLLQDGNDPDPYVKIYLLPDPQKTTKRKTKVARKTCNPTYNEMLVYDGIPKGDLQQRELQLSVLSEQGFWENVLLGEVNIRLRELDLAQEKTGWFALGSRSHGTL
UniProt O75116, sequence (whole entry, looked up): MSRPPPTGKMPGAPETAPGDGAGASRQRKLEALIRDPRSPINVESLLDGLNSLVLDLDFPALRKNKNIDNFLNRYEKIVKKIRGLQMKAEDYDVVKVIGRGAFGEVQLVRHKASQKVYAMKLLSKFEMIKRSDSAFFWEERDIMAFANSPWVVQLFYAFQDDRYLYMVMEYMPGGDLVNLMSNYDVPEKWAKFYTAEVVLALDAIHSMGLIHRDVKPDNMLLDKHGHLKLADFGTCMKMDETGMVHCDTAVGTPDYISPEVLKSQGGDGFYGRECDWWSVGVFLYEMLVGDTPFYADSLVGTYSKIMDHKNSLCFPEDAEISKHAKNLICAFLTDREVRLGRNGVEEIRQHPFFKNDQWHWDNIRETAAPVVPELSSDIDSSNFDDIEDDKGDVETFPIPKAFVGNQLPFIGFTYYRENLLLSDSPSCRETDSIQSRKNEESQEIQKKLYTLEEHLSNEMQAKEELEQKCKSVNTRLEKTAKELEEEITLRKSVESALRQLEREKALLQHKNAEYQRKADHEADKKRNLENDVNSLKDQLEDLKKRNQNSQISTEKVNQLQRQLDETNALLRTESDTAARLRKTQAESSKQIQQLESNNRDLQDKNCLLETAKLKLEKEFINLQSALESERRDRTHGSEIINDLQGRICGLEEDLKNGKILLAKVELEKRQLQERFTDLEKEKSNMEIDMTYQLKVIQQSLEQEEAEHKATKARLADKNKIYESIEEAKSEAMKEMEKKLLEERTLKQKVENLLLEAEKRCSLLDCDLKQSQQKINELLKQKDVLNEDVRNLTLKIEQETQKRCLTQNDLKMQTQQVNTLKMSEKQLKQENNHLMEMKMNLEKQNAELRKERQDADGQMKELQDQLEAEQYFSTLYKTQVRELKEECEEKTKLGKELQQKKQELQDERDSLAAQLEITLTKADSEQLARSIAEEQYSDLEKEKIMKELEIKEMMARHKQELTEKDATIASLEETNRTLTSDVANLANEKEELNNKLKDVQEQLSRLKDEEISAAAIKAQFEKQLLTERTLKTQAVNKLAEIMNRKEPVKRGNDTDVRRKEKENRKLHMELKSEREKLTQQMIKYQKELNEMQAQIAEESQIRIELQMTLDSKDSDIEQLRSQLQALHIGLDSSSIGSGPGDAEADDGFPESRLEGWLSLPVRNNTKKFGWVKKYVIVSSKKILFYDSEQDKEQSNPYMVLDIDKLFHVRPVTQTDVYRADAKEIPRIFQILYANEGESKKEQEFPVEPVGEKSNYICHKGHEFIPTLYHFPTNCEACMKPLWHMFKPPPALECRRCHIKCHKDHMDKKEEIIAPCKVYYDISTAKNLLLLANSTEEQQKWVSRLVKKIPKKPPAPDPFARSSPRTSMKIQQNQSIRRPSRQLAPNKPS
UniProt P25021, sequence (whole entry, looked up): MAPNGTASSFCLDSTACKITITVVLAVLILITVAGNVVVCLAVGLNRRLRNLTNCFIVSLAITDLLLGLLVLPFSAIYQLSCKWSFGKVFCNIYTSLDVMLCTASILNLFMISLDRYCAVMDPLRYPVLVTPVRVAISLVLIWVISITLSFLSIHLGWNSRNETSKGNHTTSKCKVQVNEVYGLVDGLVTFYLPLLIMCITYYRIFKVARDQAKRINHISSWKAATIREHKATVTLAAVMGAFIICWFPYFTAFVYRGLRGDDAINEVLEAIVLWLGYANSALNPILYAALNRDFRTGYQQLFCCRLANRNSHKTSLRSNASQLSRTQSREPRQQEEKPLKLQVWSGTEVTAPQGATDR
UniProt P06536, sequence (whole entry, looked up): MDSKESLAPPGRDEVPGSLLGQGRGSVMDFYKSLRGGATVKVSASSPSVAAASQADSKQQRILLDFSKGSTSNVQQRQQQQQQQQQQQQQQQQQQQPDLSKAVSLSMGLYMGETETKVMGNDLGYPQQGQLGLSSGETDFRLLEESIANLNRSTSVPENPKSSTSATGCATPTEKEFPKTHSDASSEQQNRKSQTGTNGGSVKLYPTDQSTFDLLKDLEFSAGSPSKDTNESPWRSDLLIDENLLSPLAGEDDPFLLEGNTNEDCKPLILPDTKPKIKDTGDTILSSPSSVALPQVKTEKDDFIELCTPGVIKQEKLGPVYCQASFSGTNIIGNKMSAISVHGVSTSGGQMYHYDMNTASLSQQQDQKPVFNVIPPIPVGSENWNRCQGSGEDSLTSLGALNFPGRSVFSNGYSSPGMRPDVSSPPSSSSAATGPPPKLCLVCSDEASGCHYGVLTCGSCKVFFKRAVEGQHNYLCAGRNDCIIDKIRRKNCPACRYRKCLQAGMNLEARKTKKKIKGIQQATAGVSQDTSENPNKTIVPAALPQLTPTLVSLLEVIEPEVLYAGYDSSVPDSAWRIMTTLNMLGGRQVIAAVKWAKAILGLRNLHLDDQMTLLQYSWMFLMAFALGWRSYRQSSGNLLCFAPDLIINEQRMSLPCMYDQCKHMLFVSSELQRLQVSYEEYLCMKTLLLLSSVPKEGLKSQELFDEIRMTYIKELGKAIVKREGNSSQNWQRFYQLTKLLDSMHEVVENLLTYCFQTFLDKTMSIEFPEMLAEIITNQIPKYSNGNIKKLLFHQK

CNC(=NCCSCc1csc(N=C(N)N)n1)NC#N
Hill coefficient (HRH2 (Homo sapiens, UniProt P25021); historical reference value): 1.1

NCCc1c[nH]cn1
activity (uncharacterized protein (Ixodes scapularis, UniProt A0A0N9E2I2); inhibitor; concentration not given): inactive

Cc1cc(NC(=O)c2cccc(NC(=O)/C=C/CN(C)C)c2)ccc1Nc1nccc(-c2cccnc2)n1
remaining activity (ROCK2 (Homo sapiens, UniProt O75116); enzyme activity, inhibitor; 1 µM; reference: vehicle): 49%

CCC(=O)O[C@]1(C(=O)SCF)[C@H](C)C[C@H]2[C@@H]3C[C@H](F)C4=CC(=O)C=C[C@]4(C)[C@@]3(F)[C@@H](O)C[C@@]21C
receptor occupancy (Nr3c1 (Rattus norvegicus, UniProt P06536); rat, spleen; intravenous, 90 nmol/kg, 1.15 (unit not given)): 68.7%

CNC(C)C1CCC(N)C(OC2C(N)CC(N)C(OC3OCC(C)(O)C(NC)C3O)C2O)O1 (centres unmarked)
MIC (Enterobacter cloacae; clinical isolate RKI-No_466/13): 4 µg/mL (≈ 8.38 µM)

CC1=CC(=O)N(c2ccccc2)C1=O
conversion (12-oxophytodienoate reductase OPR1 (isoform 1); ene-reductase biotransformation, substrate): 99%

CCc1cnn2c(NCc3ccc[n+]([O-])c3)cc(N3CCCC[C@H]3CCO)nc12
inhibition (HKDC1 protein kinase activity; measured: RBBP5 phosphorylation; 30 µM): inhibited

Nc1cc(C(F)(F)F)c(-c2nc(N3CCOCC3)nc(N3CCOCC3)n2)cn1
remaining activity (EGFR (Homo sapiens, UniProt P00533, L858R/T790M); enzyme activity; 10 µM; reference: untreated): 78%

Nc1ccn([C@@H]2O[C@H](CO)[C@@H](O)[C@H]2F)c(=O)n1
Km (cytidine deaminase (human); substrate; concentration not given): 16 µM

O=C(NCc1c(F)cc(F)cc1F)c1cn2c(c(O)c1=O)C(=O)N1[C@H]3CC[C@H](C3)O[C@@H]1C2
dissociation half-life (HIV-1 integrase-DNA complex): ~163 h

O=C(Nc1nc2ccccc2[nH]1)c1ccccc1
response (caspase-3; 12.5 µM, PubChem AID 488918): 96%

CC1(C)S[C@@H]2[C@H](NC(=O)[C@H](N)c3ccccc3)C(=O)N2[C@H]1C(=O)O
MIC (Enterobacter cloacae; clinical isolate RKI-No_466/13): > 16 µg/mL

CC(C)(O/N=C(\C(=O)N[C@@H]1C(=O)N2C(C(=O)[O-])=C(C[N+]3(CCNC(=O)c4ccc(O)c(O)c4Cl)CCCC3)CS[C@H]12)c1csc(N)n1)C(=O)O
Km (L1; hydrolysis by enzyme, substrate): 510 µM

C=CC(=O)N1CCC(C(=O)NCC(=O)N2CCN(c3nc(-c4cnc(N)nc4C(F)F)nc(N4CCOCC4)n3)CC2)CC1
remaining activity (PIK3C2B (Homo sapiens, UniProt O00750); kinase activity; 1 µM): 21%

A few entries again:
CC1=CC(=O)N(c2ccccc2)C1=O
conversion (12-oxophytodienoate reductase OPR1 (isoform 1); ene-reductase biotransformation, substrate): 99%

CCc1cnn2c(NCc3ccc[n+]([O-])c3)cc(N3CCCC[C@H]3CCO)nc12
inhibition (HKDC1 protein kinase activity; measured: RBBP5 phosphorylation; 30 µM): inhibited
